Measured values gathered from unrelated publications.
Every numbered part comes from another study and shows a few of its results, in no order. Substitutions count along the parent as printed.
Chain of UniProt P21917 (whole entry, looked up): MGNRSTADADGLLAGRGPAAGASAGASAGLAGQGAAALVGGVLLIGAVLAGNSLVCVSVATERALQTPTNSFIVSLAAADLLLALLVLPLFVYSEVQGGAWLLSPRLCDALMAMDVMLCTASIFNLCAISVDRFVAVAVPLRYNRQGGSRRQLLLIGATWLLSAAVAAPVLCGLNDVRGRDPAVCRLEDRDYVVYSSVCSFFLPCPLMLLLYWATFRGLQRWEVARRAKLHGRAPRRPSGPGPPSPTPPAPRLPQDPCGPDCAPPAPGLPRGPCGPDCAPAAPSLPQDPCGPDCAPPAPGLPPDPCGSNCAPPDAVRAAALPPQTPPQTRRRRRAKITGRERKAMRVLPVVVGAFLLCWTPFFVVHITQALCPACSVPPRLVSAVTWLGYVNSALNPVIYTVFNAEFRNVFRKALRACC
Chain of UniProt Q9Y5N1 (whole entry, looked up): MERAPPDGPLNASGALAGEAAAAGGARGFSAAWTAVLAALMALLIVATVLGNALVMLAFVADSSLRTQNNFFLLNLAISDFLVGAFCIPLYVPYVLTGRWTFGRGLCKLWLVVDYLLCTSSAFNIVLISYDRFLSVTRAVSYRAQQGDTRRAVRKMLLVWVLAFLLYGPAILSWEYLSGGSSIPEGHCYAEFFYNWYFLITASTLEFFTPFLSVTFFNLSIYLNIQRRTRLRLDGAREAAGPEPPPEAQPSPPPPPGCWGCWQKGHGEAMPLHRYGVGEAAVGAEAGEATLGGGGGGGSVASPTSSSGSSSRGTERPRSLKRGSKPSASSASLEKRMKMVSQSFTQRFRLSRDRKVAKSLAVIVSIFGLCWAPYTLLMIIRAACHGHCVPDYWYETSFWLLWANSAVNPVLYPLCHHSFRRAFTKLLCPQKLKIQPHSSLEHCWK
Chain of UniProt P13945 (whole entry, looked up): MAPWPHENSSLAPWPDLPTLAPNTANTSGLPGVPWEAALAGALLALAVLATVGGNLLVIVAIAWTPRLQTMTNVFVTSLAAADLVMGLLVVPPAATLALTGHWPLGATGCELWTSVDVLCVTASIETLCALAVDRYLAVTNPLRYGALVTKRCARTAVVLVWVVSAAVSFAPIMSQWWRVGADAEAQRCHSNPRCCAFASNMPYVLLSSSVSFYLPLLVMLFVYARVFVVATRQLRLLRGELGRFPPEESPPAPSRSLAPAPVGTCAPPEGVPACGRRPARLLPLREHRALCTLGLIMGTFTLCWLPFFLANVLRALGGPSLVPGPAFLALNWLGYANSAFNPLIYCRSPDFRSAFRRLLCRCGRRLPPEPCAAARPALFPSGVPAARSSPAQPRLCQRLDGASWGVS

Set 1 — effect on: cell-free assay; tested at: 10 µM
SMILES: Cc1c(C(=O)O)cc(-c2ccc(C3CCNCC3)cc2)c2ccc(-c3ccc(C(F)(F)F)cc3)cc12
target | inhibition
ADRB3 (Homo sapiens, UniProt P13945) | 57.5%
SIGMAR1 (Homo sapiens, UniProt Q99720) | 91.8%
DRD4 (Homo sapiens, UniProt P21917) | 8.42%
HRH3 (Homo sapiens, UniProt Q9Y5N1) | 7.04%

Set 2 — effect on: enzyme activity; action: inhibitor; tested at: 0.5 µM; relative to: control
Target: Interleukin-1 receptor-associated kinase 1 (IRAK1, Homo sapiens, UniProt P51617)
Chain of UniProt P51617 (whole entry, looked up): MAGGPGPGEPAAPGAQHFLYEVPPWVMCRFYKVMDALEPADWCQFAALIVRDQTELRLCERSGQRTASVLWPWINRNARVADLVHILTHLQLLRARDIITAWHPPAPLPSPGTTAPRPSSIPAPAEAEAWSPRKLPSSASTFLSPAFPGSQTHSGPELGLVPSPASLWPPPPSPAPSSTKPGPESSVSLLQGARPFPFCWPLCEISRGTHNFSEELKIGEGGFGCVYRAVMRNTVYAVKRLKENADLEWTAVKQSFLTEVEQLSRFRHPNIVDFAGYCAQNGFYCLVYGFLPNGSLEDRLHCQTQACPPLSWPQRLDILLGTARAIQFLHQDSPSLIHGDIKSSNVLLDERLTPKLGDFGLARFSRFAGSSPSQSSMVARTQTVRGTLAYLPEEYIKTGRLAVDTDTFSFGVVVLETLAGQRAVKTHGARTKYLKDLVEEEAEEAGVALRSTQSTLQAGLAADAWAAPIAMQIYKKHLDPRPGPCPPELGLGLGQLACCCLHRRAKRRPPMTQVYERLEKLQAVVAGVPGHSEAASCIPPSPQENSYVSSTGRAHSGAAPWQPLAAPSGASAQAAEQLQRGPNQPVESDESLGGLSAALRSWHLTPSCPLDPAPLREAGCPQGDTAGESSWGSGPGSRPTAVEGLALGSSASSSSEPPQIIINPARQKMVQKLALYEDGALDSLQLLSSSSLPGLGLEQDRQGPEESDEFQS
SMILES | remaining activity
O=C1C(Cl)=C(N2C(=O)CCC2=O)C(=O)c2ccccc21 | 101%
N#C/C(=C\c1ccc(O)c(O)c1)C(=O)NCc1ccccc1 | 154%
CCN(CC)CCNC(=O)c1c(C)[nH]c(/C=C2\C(=O)Nc3ccc(F)cc32)c1C | 31.4%
CN(C)C[C@H]1CCn2c(c(C3=C(c4cn(C)c5ccccc45)C(=O)NC3=O)c3ccccc32)C1 | 127%
O=C1c2ccccc2-c2n[nH]c3cccc1c23 | 72.4%
O=c1cc(-c2cccc3c2Sc2ccccc2S3)oc(N2CCOCC2)c1 | 103%
c1ccc(-c2cnc(Nc3ccc(OCCN4CCCC4)cc3)s2)cc1 | 109%
N#Cc1c(NC(=O)c2cccc3ccccc23)sc2c1CCCC2 | 104%
COc1cc2c(cc1OC)-c1[nH]nc(Nc3cccc(F)c3)c1C2 | 97.8%
Nc1cccc(-c2cc3c(Oc4cccc(O)c4)ncnc3[nH]2)c1 | 91.4%
Cc1cc2ncc(-c3ccccc3)nc2cc1C | 114%
CN([C@@H](Cc1ccc(OS(=O)(=O)c2cccc3cnccc23)cc1)C(=O)N1CCN(c2ccccc2)CC1)S(=O)(=O)c1cccc2cnccc12 | 95.4%

Set 3 — target: CEP164, C-terminal peptide (human); method: DHFR complementation, deep sequencing; medium: yeast; relative to: wild type; direction: higher = weaker binding
Setting: single substitutions, model-inferred values
Parent: PDZK1, PDZ domain 2 (human); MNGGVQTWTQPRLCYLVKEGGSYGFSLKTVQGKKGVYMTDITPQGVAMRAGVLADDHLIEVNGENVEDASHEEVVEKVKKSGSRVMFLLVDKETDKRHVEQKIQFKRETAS; partner HNRVKVYRF
Substitution | binding free energy change [kJ/mol]
D68C | 0.568
Q10T | 0.0773
K33N | 1.45
K28I | -2.32
M1G | -0.843
S81I | 4.34
V99I | -0.388
G32C | 2.03

Set 4 — method: universal PBM; form: double-stranded DNA, one strand shown; medium: in vitro; tested at: 600 nM; direction: higher = stronger binding
Target: Sal-like protein 4, full length isoform A (SALL4, Homo sapiens, UniProt Q9UJQ4, residues 1-1053)
Chain of UniProt Q9UJQ4 (whole entry, looked up): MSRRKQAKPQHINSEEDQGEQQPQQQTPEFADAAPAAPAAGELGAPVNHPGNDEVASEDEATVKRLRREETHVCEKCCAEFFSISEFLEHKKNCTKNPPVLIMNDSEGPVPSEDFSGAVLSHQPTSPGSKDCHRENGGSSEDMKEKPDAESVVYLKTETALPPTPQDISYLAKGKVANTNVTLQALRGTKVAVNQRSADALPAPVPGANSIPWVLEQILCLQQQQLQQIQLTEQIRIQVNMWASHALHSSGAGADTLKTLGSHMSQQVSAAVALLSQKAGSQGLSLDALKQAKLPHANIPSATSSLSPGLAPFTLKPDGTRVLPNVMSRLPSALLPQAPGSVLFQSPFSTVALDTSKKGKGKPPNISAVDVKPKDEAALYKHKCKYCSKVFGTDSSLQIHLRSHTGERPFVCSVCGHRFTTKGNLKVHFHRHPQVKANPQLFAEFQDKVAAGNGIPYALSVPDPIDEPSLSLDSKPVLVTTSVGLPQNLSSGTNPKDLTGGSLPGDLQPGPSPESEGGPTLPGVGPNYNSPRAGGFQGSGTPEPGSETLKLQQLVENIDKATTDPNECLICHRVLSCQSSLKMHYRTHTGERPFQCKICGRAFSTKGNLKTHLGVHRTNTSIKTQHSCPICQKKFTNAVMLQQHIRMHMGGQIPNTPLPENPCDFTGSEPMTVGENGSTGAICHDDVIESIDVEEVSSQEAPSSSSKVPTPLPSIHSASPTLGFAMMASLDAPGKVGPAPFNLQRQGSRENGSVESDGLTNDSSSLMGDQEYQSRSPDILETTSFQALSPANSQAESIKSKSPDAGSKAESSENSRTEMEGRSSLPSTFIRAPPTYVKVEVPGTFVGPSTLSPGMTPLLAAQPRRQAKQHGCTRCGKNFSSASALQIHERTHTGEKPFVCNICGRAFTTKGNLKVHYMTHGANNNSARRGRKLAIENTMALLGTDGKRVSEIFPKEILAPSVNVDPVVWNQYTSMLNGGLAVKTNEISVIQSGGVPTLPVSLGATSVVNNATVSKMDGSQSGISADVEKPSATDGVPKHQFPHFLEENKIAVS
Setting: 8-mer, flanks averaged, mean of replicates
Strand | E-score
CAGAAAAG | 0.0401
ACATGTAC | 0.0553
AAACAACC | 0.0398
ACCAAGCT | -0.0556
TCGGTAAA | 0.133
AATGTGCC | -0.0139
CGGCCAAC | -0.3
GCCGGTTA | -0.129

A few entries again (set 2):
SMILES | remaining activity
O=C1C(Cl)=C(N2C(=O)CCC2=O)C(=O)c2ccccc21 | 101%
O=C1c2ccccc2-c2n[nH]c3cccc1c23 | 72.4%
O=c1cc(-c2cccc3c2Sc2ccccc2S3)oc(N2CCOCC2)c1 | 103%
N#Cc1c(NC(=O)c2cccc3ccccc23)sc2c1CCCC2 | 104%
CCN(CC)CCNC(=O)c1c(C)[nH]c(/C=C2\C(=O)Nc3ccc(F)cc32)c1C | 31.4%
